{"data": "Experimental data of several laboratories", "note": "Numbered parts are unrelated; each lists some results of a single study.", "sequence of UniProt P35916 (whole entry, looked up)": "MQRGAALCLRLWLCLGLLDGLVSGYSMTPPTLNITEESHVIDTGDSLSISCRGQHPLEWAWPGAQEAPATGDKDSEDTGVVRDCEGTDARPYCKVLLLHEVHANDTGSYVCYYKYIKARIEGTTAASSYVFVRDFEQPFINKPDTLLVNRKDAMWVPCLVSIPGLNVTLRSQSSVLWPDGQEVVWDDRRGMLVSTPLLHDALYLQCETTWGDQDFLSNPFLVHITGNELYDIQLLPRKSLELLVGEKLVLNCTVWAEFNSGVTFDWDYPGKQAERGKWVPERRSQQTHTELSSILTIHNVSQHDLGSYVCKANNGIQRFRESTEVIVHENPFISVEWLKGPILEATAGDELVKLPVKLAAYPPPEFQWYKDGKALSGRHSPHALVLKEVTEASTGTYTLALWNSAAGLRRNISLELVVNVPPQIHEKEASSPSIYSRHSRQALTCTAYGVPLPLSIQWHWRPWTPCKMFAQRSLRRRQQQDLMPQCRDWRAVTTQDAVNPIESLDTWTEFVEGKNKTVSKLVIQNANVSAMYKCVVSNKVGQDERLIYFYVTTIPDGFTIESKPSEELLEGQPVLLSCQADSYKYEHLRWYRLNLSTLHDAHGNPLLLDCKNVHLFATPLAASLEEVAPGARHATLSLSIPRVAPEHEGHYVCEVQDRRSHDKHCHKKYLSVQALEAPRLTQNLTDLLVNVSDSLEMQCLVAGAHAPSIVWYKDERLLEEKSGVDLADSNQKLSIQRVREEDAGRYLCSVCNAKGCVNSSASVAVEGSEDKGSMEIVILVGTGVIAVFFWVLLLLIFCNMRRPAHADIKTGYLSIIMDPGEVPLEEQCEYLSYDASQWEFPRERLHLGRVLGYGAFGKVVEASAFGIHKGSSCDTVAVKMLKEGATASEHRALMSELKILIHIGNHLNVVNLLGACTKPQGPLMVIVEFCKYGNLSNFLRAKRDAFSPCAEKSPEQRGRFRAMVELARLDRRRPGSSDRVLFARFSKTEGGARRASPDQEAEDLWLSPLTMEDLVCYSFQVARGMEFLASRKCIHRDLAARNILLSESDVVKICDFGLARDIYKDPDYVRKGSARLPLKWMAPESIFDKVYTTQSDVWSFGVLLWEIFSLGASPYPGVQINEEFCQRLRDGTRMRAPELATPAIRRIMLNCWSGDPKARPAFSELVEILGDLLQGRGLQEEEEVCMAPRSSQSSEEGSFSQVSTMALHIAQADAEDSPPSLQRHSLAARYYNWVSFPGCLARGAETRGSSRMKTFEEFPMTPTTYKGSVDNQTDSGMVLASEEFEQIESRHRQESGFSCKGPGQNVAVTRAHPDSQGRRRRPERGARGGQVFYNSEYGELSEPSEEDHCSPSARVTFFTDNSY", "sequence of UniProt P29597 (whole entry, looked up)": "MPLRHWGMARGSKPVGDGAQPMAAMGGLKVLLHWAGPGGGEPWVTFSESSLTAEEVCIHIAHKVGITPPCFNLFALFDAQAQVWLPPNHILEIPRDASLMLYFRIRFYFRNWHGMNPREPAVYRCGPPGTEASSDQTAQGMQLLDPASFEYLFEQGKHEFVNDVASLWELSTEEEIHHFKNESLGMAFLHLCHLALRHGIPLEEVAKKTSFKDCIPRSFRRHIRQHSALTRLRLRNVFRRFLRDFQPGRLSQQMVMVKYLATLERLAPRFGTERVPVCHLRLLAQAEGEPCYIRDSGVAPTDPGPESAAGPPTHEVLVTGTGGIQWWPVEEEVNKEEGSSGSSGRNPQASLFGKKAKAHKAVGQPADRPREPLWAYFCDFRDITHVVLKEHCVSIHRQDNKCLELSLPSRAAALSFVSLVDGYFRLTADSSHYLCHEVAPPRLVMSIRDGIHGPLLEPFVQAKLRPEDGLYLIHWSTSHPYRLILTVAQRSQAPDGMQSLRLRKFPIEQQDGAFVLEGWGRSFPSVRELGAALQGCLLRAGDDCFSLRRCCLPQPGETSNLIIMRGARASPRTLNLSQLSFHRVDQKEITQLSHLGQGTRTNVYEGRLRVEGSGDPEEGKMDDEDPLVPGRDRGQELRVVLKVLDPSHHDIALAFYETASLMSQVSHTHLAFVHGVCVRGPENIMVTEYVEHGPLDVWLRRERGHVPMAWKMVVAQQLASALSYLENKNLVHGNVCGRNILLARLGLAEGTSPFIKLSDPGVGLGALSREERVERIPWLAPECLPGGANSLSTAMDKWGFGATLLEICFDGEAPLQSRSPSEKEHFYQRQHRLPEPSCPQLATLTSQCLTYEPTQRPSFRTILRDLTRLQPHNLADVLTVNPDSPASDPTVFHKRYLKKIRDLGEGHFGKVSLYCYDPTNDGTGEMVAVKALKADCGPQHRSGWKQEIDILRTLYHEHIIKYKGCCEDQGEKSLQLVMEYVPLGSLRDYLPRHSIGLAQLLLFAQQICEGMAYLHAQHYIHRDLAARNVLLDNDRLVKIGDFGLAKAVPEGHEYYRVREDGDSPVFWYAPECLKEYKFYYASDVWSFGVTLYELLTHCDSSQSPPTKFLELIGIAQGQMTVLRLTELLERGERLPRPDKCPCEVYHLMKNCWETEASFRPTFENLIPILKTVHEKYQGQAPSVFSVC", "sequence of UniProt Q6XUX3 (whole entry, looked up)": "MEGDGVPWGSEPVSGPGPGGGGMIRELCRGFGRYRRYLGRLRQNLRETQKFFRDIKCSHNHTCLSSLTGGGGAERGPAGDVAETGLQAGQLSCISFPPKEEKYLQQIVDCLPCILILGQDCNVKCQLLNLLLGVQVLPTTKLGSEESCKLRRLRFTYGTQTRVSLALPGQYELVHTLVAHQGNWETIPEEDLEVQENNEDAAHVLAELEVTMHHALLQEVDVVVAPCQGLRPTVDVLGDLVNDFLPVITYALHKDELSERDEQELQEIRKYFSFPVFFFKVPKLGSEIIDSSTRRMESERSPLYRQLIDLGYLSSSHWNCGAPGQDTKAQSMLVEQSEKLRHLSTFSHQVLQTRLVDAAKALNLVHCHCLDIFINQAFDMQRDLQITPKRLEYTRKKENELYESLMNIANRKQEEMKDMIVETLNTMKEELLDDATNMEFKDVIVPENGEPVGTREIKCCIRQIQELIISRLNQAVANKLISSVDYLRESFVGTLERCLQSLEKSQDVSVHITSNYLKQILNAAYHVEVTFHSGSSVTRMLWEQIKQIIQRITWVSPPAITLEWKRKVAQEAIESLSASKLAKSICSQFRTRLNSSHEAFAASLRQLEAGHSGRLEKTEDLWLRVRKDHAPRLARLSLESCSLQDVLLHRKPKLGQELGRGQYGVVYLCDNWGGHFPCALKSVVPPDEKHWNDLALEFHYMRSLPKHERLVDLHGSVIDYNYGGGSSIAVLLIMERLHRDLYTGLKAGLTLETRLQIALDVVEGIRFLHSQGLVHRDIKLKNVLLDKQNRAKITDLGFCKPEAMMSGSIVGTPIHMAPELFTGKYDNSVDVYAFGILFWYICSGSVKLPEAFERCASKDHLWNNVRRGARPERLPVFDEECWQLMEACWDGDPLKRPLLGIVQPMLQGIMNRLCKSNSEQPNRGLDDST", "sequence of UniProt Q8NI60 (whole entry, looked up)": "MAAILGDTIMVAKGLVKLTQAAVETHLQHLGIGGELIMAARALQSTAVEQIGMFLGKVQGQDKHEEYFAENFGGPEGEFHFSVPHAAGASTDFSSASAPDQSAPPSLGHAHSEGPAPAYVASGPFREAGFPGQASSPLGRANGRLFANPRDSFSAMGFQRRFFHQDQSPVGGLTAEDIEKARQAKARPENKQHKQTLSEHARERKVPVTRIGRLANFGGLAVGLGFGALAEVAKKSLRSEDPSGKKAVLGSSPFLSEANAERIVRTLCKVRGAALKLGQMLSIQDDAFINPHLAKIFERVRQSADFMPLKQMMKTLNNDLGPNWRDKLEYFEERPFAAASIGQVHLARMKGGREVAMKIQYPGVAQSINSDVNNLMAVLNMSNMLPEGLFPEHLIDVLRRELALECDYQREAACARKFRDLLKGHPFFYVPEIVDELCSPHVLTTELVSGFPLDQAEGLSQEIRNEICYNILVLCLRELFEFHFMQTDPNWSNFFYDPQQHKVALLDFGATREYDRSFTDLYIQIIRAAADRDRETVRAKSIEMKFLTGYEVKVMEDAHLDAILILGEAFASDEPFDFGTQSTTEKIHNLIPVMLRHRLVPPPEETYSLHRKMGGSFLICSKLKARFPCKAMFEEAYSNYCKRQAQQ", "sequence of UniProt Q8WU08 (whole entry, looked up)": "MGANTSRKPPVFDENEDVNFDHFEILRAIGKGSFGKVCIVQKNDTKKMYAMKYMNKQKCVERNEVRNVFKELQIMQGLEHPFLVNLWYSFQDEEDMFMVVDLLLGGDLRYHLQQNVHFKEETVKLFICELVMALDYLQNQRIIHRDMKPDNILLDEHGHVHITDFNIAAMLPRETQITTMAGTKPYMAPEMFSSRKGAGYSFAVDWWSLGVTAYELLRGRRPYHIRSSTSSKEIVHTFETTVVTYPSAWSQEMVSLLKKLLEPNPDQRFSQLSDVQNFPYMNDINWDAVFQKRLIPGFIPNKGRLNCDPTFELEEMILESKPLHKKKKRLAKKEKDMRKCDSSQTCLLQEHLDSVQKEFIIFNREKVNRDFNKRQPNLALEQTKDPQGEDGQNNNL"}
{"data": "Block 1", "target": "D(1A) dopamine receptor (DRD1, Homo sapiens, UniProt P21728)", "effect on": "binding", "method": "radioligand binding", "concentration": "10 µM", "sequence of UniProt P21728 (whole entry, looked up)": "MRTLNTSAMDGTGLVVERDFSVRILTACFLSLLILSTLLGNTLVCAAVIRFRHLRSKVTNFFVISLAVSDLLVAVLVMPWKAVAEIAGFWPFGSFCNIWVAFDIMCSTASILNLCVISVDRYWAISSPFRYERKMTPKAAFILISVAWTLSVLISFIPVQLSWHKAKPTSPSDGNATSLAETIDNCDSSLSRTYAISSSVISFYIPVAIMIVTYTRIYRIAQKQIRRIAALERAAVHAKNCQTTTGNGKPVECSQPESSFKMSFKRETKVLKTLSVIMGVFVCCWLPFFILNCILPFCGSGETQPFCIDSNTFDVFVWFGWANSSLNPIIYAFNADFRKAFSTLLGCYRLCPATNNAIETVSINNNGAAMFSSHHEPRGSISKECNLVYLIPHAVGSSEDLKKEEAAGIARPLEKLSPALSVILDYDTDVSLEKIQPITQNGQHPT"}
{"Compound": "Cc1nc(N2CC[C@@H](O)C2)ncc1-c1cc(C(F)(F)F)cc2[nH]ncc12", "inhibition [%]": 11.1}
{"Compound": "COc1nc2ccc([C@@](O)(c3ccccc3)C3CCN(C(C)=O)CC3)cc2c(Cl)c1Cc1ccc(-n2cccn2)cc1", "inhibition [%]": 19.9}
{"Compound": "COCCc1ccc(-c2c(C)nc3c(N4CCOCC4)ccnn23)cn1", "inhibition [%]": 2.41}
{"Compound": "CC(=O)Nc1nc(CN2CCC[C@H](Cc3cc(C)nc(C)c3)C2)cs1", "inhibition [%]": 10.7}
{"Compound": "CC(C)(O)c1cncc(-c2nc3ccc(F)cc3n2C2CC2)c1", "inhibition [%]": 0.87}
{"Compound": "CC(C)CC(=O)N1CCc2nc(-c3ccc(Br)cc3)nc(N(C)Cc3ccccc3)c2C1", "inhibition [%]": 18.5}
{"Compound": "Cc1cc(-n2nc(Cc3cc(F)cc(C(F)(F)F)c3)nc2C)ccc1C(N)=O", "inhibition [%]": -4.72}
{"Compound": "O=C([C@H]1C[C@H](O)CN1c1ccc(Cl)cc1)N1CC2COCC(C1)N2Cc1ccc(Cl)cc1", "inhibition [%]": -16.5}
{"Compound": "CCOCCn1cc(C(=O)Nc2ccc(-n3nc(-c4cccnc4)cc3C(F)(F)F)cn2)ccc1=O", "inhibition [%]": -7.31}
{"data": "Block 2", "SMILES": "C=CC(=O)N1CCC[C@@H](n2nc(-c3ccc(Oc4ccccc4)cc3)c3c(N)ncnc32)C1", "mode": "inhibitor", "concentration": "1 µM"}
{"target": "COQ8A (Homo sapiens, UniProt Q8NI60)", "effect on": "enzyme activity", "inhibition [%]": 4}
{"target": "FLT4 (Homo sapiens, UniProt P35916)", "effect on": "enzyme activity", "inhibition [%]": 76}
{"target": "IGF1R (Homo sapiens, UniProt P08069)", "effect on": "enzyme activity", "inhibition [%]": 16}
{"target": "Tyrosine-protein kinase ABL1, phosphorylated (ABL1, Homo sapiens, UniProt P00519, M351T)", "inhibition [%]": 34}
{"target": "Tyrosine-protein kinase ABL1, non-phosphorylated (ABL1, Homo sapiens, UniProt P00519, F317I)", "inhibition [%]": 91}
{"target": "DSTYK (Homo sapiens, UniProt Q6XUX3)", "effect on": "enzyme activity", "inhibition [%]": 84}
{"target": "Non-receptor tyrosine-protein kinase TYK2, JH1 domain (TYK2, Homo sapiens, UniProt P29597)", "inhibition [%]": 4}
{"target": "STK32A (Homo sapiens, UniProt Q8WU08)", "effect on": "enzyme activity", "inhibition [%]": 61}
{"data": "Block 3", "target": "Myotonin-protein kinase (DMPK, Homo sapiens, UniProt Q09013)", "effect on": "enzyme activity", "mode": "inhibitor", "concentration": "0.5 µM", "reference": "control", "Target sequence (Q09013 1-629)": "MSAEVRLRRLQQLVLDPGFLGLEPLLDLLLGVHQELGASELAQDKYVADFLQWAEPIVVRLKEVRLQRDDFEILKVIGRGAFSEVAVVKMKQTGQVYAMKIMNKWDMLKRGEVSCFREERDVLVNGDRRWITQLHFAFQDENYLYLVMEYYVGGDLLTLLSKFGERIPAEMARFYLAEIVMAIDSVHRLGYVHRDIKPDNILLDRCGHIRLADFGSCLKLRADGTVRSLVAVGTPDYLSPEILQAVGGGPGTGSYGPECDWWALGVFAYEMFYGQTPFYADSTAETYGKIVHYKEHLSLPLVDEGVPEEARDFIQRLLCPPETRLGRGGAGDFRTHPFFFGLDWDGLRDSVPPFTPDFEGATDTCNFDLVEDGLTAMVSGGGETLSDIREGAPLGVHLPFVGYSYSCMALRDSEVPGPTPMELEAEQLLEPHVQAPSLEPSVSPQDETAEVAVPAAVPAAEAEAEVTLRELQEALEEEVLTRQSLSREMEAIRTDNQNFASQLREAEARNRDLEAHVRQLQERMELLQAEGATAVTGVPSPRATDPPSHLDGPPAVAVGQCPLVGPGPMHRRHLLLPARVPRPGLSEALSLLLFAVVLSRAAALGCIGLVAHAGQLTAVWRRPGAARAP"}
{"Structure (SMILES)": "Nc1[nH]nc2nc3ccccc3nc12", "remaining activity": "98.4%"}
{"Structure (SMILES)": "Cc1nc(-c2ccccc2)c(-c2ccncc2)o1", "remaining activity": "103%"}
{"Structure (SMILES)": "COc1ccc(CNC(=O)Nc2ncc([N+](=O)[O-])s2)cc1", "remaining activity": "101%"}
{"Structure (SMILES)": "O=C(Nc1cccc(Nc2cc(Nc3cccc(C(F)(F)F)c3)ncn2)c1)C1CC1", "remaining activity": "99.7%"}
{"Structure (SMILES)": "Cc1cccc(-c2[nH]c(C(C)(C)C)nc2-c2ccc3c(c2)OCO3)n1", "remaining activity": "102%"}
{"Structure (SMILES)": "Cc1ccc(NC(=O)c2ccc(CN3CCN(C)CC3)cc2)cc1Nc1nc(-c2cccnc2)cs1", "remaining activity": "104%"}
{"Structure (SMILES)": "Cn1c2ccccc2c2c3c(c4c5ccccc5n(CCC#N)c4c21)CNC3=O", "remaining activity": "101%"}
{"Structure (SMILES)": "Cn1sc(=O)n(Cc2ccccc2)c1=O", "remaining activity": "100%"}
{"Structure (SMILES)": "Nc1ncnc2n[nH]c(Nc3ccc(F)cc3)c12", "remaining activity": "114%"}
{"Structure (SMILES)": "O=C1NC(=O)C(c2cn(CCCn3ccnc3)c3ccccc23)=C1Nc1ccccc1", "remaining activity": "104%"}
{"Structure (SMILES)": "COc1cc2ncnc(Nc3ccc(Oc4ccccc4)cc3)c2cc1OC", "remaining activity": "106%"}
{"Structure (SMILES)": "N#CC(C#N)=C(N)/C(C#N)=C/c1ccc(O)cc1", "remaining activity": "101%"}
{"Structure (SMILES)": "OCC(O)CCON=C1C(c2c(O)[nH]c3ccccc23)=Nc2ccccc21 (stereo not shown)", "remaining activity": "99.5%"}
{"Structure (SMILES)": "O=C1NC(=O)C(c2cn(CCCO)c3ncccc23)=C1c1cnccn1", "remaining activity": "99.6%"}
{"Structure (SMILES)": "Nc1ccc2ncnc(NCCc3ccc(Oc4ccccc4)cc3)c2c1", "remaining activity": "94.2%"}
{"data": "Block 4", "host": "human", "sample": "microsomes or S9", "concentration": "2 µM", "time": "0.5 h"}
{"Structure (SMILES)": "CC(C)(C)OC(=O)N1CCC(Nc2nccn3c(Br)cnc23)CC1", "remaining compound [%]": 95}
{"Structure (SMILES)": "c1ccc(-c2ccc(-c3cn4c5ccccc5nc4n3CCN3CCCCC3)cc2)cc1", "remaining compound [%]": 28.8}
{"Structure (SMILES)": "CCCNS(=O)(=O)c1ccc(CCC(=O)N2CCC(C(=O)OCC)CC2)cc1", "remaining compound [%]": 6.38}
{"Structure (SMILES)": "CCOC(=O)c1c(C)nn(-c2ncnc3c2c(C)c(C)n3CCc2ccccc2)c1N", "remaining compound [%]": "> 100"}
{"Structure (SMILES)": "Cc1ccc(Nc2n[nH]c(N)c2S(=O)(=O)c2ccccc2)cc1", "remaining compound [%]": 55.4}
{"Structure (SMILES)": "Cc1nccn1S(=O)(=O)c1ccc(C(C)(C)C)cc1", "remaining compound [%]": 42.1}
{"Structure (SMILES)": "CC(CCCC(C)(C)O)Cc1[nH]cnc1-c1ccccc1 (stereo not shown)", "remaining compound [%]": 90.1}
{"Structure (SMILES)": "Cc1ncc2c(c1O)COC(C)OC2 (stereo not shown)", "remaining compound [%]": 98.2}
{"note": "Excerpt of the above (block 1):"}
{"Compound": "CC(=O)Nc1nc(CN2CCC[C@H](Cc3cc(C)nc(C)c3)C2)cs1", "inhibition [%]": 10.7}
{"Compound": "COc1nc2ccc([C@@](O)(c3ccccc3)C3CCN(C(C)=O)CC3)cc2c(Cl)c1Cc1ccc(-n2cccn2)cc1", "inhibition [%]": 19.9}
{"Compound": "Cc1nc(N2CC[C@@H](O)C2)ncc1-c1cc(C(F)(F)F)cc2[nH]ncc12", "inhibition [%]": 11.1}
{"Compound": "CC(C)(O)c1cncc(-c2nc3ccc(F)cc3n2C2CC2)c1", "inhibition [%]": 0.87}
